# Measurements gathered from unrelated publications.
# Protocols differ between the studies behind these lines.
# UCHL1: Ubiquitin carboxyl-terminal hydrolase isozyme L1 (UCHL1, Homo sapiens, UniProt P09936)
# Chain of UniProt P09936 (whole entry, looked up): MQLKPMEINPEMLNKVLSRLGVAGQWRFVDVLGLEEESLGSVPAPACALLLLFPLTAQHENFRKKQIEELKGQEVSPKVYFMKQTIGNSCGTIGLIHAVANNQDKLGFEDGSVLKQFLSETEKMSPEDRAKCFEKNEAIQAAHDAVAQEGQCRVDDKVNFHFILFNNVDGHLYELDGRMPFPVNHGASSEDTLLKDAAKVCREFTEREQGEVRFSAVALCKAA
Compound,target or system,assay,test system,setting,how to read,quantity,value
CC(C)n1nc(-c2ccc3oc(N)nc3c2)c2c(N)ncnc21,,,"human, plasma","oral, 30 mg once weekly, cycle 1 day 1",,AUC(0-last),1980 ng·h/mL
Cc1noc(C)c1-c1cc(C(O)(c2ccccn2)c2ccccn2)c2nc(C3CC3)[nH]c2c1,,,"human patients, fasted, plasma","oral, 6 mg once daily, cycle 1 day 15, together with: enzalutamide once daily",,AUC(0-last),701 ng·h/mL
CN(C)C(=O)c1cc2cnc(Nc3ccc(N4CCNCC4)cn3)nc2n1C1CCCC1,,,"human, moderate renal impairment, plasma","oral, 400 mg, geometric mean",,AUC(0-last),7860 ng·h/mL
N#CC(=Cc1ccccc1Cl)C(=O)Nc1cccc2ncccc12,UCHL1,"covalent, intact protein LC-MS",,12.5 µM,,labelling,10.5%
CC(C)NC(=O)COc1cccc(-c2nc(Nc3ccc4[nH]ncc4c3)c3ccccc3n2)c1,,,"human male, plasma","oral, 200 mg once daily, day 13, fed, geometric mean, together with: rosuvastatin",,AUC(0-last),13600 ng·h/mL
C=CC(=O)N1CCC[C@@H](n2c(=O)n(-c3ccc(Oc4ccccc4)cc3)c3c(N)nccc32)C1,,,human,"oral, 240 mg",reference: fed over fasted,AUC(0-last) fed/fasted ratio,1.72
COC(=O)N[C@@H](C)CNc1nccc(-c2cn(C(C)C)nc2-c2cc(Cl)cc(NS(C)(=O)=O)c2F)n1,,,"humans, plasma","oral, dose not given, day 14, steady state, together with: binimetinib",,AUC(0-last) median,13200 ng·h/mL
C=CC(=O)N(C)CCOc1c(N)ncnc1-c1cc(F)cc(NC(=O)c2ccc(C3CC3)cc2F)c1C,,,human,"oral, 50 mg, day 3, geometric mean, given alone",,AUC(0-last) per dose,4.37 ng·h/mL/mg
Cc1ccc(NC(=O)C(C#N)=Cc2ccc(Cl)cc2Cl)cc1C,UCHL1,"covalent, intact protein LC-MS",,12.5 µM,,labelling,25.7%
CC(F)(F)c1cc(F)ccc1-c1sc2cc(O)ccc2c1Oc1ccc(/C=C/C(=O)O)cc1,,,"human, serum","oral, 450 mg once daily, cycle 1 day 28, fasted, mean",,AUC(0-last),22600 ng·h/mL

# Repeated from above:
Compound,target or system,assay,test system,setting,how to read,quantity,value
Cc1ccc(NC(=O)C(C#N)=Cc2ccc(Cl)cc2Cl)cc1C,UCHL1,"covalent, intact protein LC-MS",,12.5 µM,,labelling,25.7%
